# Results collected from several papers.
# Parts stem from different laboratories: compare values within a part only.

# Set 1 — method: RNA Bind-n-Seq; molecule type: RNA; sample: in vitro; concentration: not given; setting: RNA with constant flanks, ends assumed; baseline: input RNA pool; reading: higher = stronger binding
# Target: RING finger protein unkempt homolog, zinc fingers 1-6, GST-SBP tag (UNK, Homo sapiens, UniProt Q9C0B0, residues 30-357)
# UniProt Q9C0B0, sequence (30-357, looked up): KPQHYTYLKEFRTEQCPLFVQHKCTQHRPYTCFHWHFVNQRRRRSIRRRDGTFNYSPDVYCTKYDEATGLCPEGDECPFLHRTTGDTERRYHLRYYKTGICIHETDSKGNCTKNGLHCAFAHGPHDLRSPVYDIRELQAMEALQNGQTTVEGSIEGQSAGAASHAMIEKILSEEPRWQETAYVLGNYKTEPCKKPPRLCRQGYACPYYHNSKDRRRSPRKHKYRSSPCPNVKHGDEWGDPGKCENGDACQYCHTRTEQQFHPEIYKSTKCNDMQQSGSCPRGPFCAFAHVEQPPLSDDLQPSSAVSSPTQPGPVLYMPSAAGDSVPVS
Strand,bound/input enrichment
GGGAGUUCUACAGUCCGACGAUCAAUGAAGAAGAAAUACGUGCAAAUGUGGCCGUGGUUUCUGGUGCACCACUUCAGGGGUUGGCCGCAAGACCUUCCAGUAUAAACUAUAUGGUGGCUCCUGUAACUGGUAAUGAUGUUGGACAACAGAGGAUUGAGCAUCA,0.448 ratio
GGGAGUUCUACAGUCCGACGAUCCUGUAUUUAUAAAUGUAUAAUGUAUUUAGCUACUUUUUGGUUUAAAUGAACUUGUUGGGUCCGCUUGGUAAAUGUUAUAAUUUUUACUAUUUUCUACAAAGAAAAUAUUUUCUAAUUUAACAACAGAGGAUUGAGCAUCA,14.5 ratio
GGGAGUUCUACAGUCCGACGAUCGUCAUGCCGGGGAUAGUGGAGCUGCCCACUCUAGAGGAGCUGAAAGUAGAUGAGGUGAAAAUCCGUUCUGCUGUGCUUAAAGCUGCGGCCCAUCACUAUGGAGCUCAAUGUGAUAAGCCCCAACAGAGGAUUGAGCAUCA,8.28 ratio
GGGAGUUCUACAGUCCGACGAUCUCAGACACCAUGGUGUGCCAGUCUUCCUCAACUGUAGGUCAGUCAUUCAGUGAACAACACAUCCGCCAACUUCAAGAAAGCAUUCGGGCAGAGAUACCCUGUGAAGAUGAACAAGAGCAACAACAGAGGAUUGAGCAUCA,0.116 ratio
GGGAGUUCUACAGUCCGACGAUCAAGAUGGAGGGUAGCUAGGUAGCUAUGUUGGUCCGUGCUCGACCGGCCCAAUGUUGCCUUCCGUUUUGCCAUUCAGACCAGUGGGUCGGUGUGAUGAUUUAUUCCUGGCGCCCAUAUGAGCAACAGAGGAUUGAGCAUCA,0.161 ratio
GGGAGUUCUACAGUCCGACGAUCGUGUGCAAAAGCAAGAAGUCCUGGCAAGCGAGACACACUGGUAUUAAGAUUGUACAACAGACCGCUAUUCUUAUGGGCUGUGCCAUCUUGCCACAUCUUAGAAGUUUAGUUGAAAUCAUUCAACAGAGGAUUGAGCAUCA,1.06 ratio
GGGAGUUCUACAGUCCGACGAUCCCACUUCGUAGUGUUUUGGAACAAACCAAGUUAAAGAAAGAAGAUAUUUAUGCAGUGGAGACCGUUGGUGGUGCUACACGAAUCCCUGCGGUAAAAGAGAAGAUCAGCAAAUUUUUCGGUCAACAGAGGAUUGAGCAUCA,0.417 ratio
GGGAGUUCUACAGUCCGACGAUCGCCCGCCUUUUCCUUUCUCACUUUGGAUUUUUAUCCUUAGAGGCAUUAAAGGAACCUGCAAACCGUCGUCUACCUCCUCAUCUUAUUGCACUCGAUUCUACCAUACCUGGAUUUUUUGAUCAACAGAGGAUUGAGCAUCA,0.193 ratio

# Set 2 — method: protein binding microarray; molecule type: double-stranded DNA, one strand shown; sample: in vitro; concentration: not given; baseline: not given; reading: higher = stronger binding
# Target: Histone acetyltransferase KAT6A, winged helix 2, GST fusion (KAT6A, Homo sapiens, UniProt Q92794, residues 85-181)
# Setting: 8-mer, flanks averaged, mean of 2 arrays, mostly near background
# Residues (chain): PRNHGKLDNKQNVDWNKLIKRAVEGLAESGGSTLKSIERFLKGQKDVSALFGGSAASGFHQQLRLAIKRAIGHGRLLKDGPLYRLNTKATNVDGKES
Strand,E-score
AATTACGT,-0.23
GCTCAAAC,0.154
CGTGGCGC,-0.037
GCGCTGGA,0.167
CTCTTTCC,0.00551
CCCGACCG,0.168
AACGCTTG,0.016
GGAGGAAC,-0.0657
GTTCGATA,0.0385
ACGACAGT,0.00596
ACGGCTCT,-0.0422
GAGACGTA,-0.179
GCTTCGAA,0.122
ATAACCCG,-0.101
AAATCCGC,0.0807
CAAATCTC,0.0152
TGTGTCAA,-0.0809
CAGTTATG,-0.056
ACTTTTTC,-0.0919
GGTGCTAA,0.00762

# Set 3 — method: aptamer microarray, sandwich; molecule type: DNA with 2'F-ANA; sample: in vitro; concentration: 200 nM; together with: Cy3 exosite-II aptamer, 400 nM; reading: higher = stronger binding; strand: GGTTGGTGTGGTTGG
# Target: Prothrombin, mature alpha-thrombin (F2, Homo sapiens, UniProt P00734)
# Setting: whole 15-mer aptamer, many near background
Modification,mean fluorescence intensity [a.u.]
2'F-ANA at 1 3 5 7 8 10 13 15,50.7
2'F-ANA at 2 4 6 7 8 11 12 14,127
2'F-ANA at 1 5 6 11 13 15,68.7
2'F-ANA at 1 4 5 6 7 8 9 12 15,112
2'F-ANA at 4 5 6 7 9 10 12 13 14 15,49.1
2'F-ANA at 1 3 4 6 7 9 11 13 15,97.6
2'F-ANA at 1 6 8 11 12 15,301
2'F-ANA at 1 2 10 11 12 13 14,55
2'F-ANA at 1 2 4 6 7 8 9 13,80.2
2'F-ANA at 3 4 5 6 8 9 12 13 15,107
2'F-ANA at 1 2 3 4 5 6 8 9 13 14,72.3
2'F-ANA at 2 4 6 7 9 10 12 13 14,65.4
2'F-ANA at 1 5 6 11,51.2
2'F-ANA at 3 4 12 13,829
2'F-ANA at 1 2 5 7 8 9 13 15,49.6
2'F-ANA at 1 3 4 5 6 7 10 11 13,61.8
2'F-ANA at 1 3 4 6 10 12 13,70.7

# Set 4 — method: RNA Bind-n-Seq; molecule type: RNA; sample: in vitro; concentration: 365 nM; baseline: no-protein control; reading: higher = stronger binding
# Target: RNA binding protein fox-1 homolog 2, RRM domain, GST-SBP tag (RBFOX2, Homo sapiens, UniProt O43251-10, residues 100-194)
# Setting: natural RNA segment, single round, ends assumed
Strand,RBNS enrichment (R)
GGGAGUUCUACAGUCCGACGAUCGUUUUGUUUUGUAUUUCUUUGUUAUUUUAUUGGGAAGGUAAGCGGAAUGUGCUCAUAGACCAUCAGACGCUUGUCGAAGGCAGGUCCUAGUCAUGUAAUUGCACAGGACAUGGAAUUCUCGGGUGCCAA,0.808
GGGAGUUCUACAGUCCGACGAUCUUUAUGGAUAGAGGAAAAGCUGGUGGAGAAUAGAAGGACGAAAUAUUCUAGAAGAUGGGUCAGGGUGCAGGAAGUCACAUGCCCUCAAGAAGUAUGAGAGUUGGGCUAUGUGGAAUUCUCGGGUGCCAA,1.87
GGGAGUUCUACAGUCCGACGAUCACAAUGUGUGCACAUAGGGAAUGUCCUUUAAGAAUCAUGGAUCUCUUGUAGGCUCUCUGUGUUCCAAUAAUUUUUUGACUAUCAUACCAGGAAAAAACCAACAACUCUAUUGGAAUUCUCGGGUGCCAA,0.787
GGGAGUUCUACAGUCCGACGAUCAGAAUCCACUUCCACAGGUGGCUGCCCUUGUAAGGAAGAAUGCAUCCCUAAAUGUGGCCACCAGAGAGUUCCAGUGGGCAGAUGUCUGUGGCUGCCCUUCUCAUUUAAGGUGGAAUUCUCGGGUGCCAA,1.39
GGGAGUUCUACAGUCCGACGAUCUUAGCUUGAACUACUUUGCAGUAAUUUAUUUGACAGAUCUCUAUUCUAUAAAUGUGUAAUGUGAUGAAGAAAGAGAUCUUUCUUUUUUAAUGAAAACAUUAAUGUGUUAAUGGAAUUCUCGGGUGCCAA,1
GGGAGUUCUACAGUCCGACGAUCCAGAAAUGAGACAUUCUGACAAUAAUGAAGUGCUUCAUGGUAUCUCAACAGUGUACUUUCUUGUAAUAUUUUCCAUCUUUUUAACCUGAGCAUGUUUGUUUUGUCUGCUUUGGAAUUCUCGGGUGCCAA,8.14
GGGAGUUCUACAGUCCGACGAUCAUGCCAGGCUGGUGCAGAUGGAGGUCCUCAUGAAUAAGCGCUGUGUUUGAUGGGGUCUGGGACUGCACACUGUCAGUAUAUUAGGCACGUGGGCCAGCUGGGGUGGGUUUUGGAAUUCUCGGGUGCCAA,0.997
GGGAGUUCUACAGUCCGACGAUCGAAUUUUACGAUUCCCAAACCAUGCAGGGGCUGAGCCUUCCUUAUGAUGACUUUGUUCUCCCUCCCACUGGGGGAAUCCUCCCUAUGCCUUAAAACUGCCGAGCCCCACUUGGAAUUCUCGGGUGCCAA,0.37
